Assay results from different studies.
Each line is one published result; not all experiments were run side by side. Numbers after ± are the reported error.
ADORA1: Adenosine receptor A1 (ADORA1, Homo sapiens, UniProt P30542)
Sequence of UniProt P30542 (whole entry, looked up): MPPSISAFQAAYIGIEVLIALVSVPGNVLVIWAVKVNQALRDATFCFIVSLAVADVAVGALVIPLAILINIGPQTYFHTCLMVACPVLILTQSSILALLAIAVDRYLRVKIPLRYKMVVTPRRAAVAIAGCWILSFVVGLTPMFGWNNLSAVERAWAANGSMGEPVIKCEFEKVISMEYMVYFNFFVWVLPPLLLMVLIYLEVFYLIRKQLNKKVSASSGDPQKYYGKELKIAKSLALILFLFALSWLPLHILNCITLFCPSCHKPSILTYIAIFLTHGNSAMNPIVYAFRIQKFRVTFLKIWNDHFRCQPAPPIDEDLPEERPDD
RIPK2: Receptor-interacting serine/threonine-protein kinase 2 (RIPK2, Homo sapiens, UniProt O43353)
Sequence of UniProt O43353 (whole entry, looked up): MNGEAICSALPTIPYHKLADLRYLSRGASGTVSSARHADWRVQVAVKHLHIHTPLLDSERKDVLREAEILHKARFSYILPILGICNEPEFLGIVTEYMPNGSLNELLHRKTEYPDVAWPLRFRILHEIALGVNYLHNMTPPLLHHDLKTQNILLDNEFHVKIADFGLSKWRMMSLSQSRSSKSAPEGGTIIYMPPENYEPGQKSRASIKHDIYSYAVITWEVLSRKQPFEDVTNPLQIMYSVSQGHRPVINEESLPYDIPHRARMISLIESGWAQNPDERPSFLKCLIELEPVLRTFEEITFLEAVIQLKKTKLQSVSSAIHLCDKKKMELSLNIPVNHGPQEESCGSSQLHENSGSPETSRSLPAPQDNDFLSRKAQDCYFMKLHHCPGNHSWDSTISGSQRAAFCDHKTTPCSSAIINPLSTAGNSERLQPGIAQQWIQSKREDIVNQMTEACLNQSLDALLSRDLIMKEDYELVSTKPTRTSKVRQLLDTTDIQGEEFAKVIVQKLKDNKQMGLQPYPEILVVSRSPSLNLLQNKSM
MAPK10: Mitogen-activated protein kinase 10 (MAPK10, Homo sapiens, UniProt P53779)
Sequence of UniProt P53779 (whole entry, unmodified, looked up): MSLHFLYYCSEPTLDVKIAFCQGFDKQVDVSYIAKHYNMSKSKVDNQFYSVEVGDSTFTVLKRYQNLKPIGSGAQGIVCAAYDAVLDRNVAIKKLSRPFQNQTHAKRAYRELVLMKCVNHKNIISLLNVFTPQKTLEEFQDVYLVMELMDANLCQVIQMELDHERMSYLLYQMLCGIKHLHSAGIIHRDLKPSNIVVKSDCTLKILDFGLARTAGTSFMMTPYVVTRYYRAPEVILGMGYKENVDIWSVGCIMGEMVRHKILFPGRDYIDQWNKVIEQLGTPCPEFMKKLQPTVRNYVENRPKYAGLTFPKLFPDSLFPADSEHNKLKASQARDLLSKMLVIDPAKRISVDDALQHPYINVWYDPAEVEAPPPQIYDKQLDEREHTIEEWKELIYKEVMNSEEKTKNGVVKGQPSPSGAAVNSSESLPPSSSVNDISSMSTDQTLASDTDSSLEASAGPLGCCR
Sequence of UniProt P23458 (whole entry, looked up): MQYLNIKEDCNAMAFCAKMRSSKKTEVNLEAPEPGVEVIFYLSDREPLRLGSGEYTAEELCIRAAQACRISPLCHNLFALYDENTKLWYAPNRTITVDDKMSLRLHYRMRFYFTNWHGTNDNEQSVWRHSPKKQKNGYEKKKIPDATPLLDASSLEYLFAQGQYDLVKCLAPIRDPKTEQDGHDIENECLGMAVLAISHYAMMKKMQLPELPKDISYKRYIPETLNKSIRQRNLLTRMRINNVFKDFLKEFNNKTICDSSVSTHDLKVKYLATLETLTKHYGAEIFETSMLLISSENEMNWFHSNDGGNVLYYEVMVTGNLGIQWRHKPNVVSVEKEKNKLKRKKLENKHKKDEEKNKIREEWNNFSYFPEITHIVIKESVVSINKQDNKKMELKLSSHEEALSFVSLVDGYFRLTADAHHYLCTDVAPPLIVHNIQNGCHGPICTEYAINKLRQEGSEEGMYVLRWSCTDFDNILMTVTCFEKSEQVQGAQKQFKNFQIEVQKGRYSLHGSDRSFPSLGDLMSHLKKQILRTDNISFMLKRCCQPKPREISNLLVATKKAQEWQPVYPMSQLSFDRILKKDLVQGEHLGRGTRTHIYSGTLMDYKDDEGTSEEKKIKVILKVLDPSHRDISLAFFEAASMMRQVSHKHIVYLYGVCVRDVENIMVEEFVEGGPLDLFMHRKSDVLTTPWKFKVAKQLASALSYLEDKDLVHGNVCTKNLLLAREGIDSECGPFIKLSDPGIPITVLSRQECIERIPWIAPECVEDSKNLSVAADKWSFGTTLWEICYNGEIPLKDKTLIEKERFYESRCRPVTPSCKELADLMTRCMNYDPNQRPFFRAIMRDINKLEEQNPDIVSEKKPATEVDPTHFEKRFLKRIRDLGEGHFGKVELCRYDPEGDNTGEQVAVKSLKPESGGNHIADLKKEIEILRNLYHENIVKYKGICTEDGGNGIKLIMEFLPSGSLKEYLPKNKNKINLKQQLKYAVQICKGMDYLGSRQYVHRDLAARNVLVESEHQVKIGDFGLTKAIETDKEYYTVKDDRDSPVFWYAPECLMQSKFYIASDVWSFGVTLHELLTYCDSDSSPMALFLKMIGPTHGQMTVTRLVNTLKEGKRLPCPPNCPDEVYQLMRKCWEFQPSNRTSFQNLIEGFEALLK
Sequence of UniProt Q9Y6K9 (whole entry, looked up): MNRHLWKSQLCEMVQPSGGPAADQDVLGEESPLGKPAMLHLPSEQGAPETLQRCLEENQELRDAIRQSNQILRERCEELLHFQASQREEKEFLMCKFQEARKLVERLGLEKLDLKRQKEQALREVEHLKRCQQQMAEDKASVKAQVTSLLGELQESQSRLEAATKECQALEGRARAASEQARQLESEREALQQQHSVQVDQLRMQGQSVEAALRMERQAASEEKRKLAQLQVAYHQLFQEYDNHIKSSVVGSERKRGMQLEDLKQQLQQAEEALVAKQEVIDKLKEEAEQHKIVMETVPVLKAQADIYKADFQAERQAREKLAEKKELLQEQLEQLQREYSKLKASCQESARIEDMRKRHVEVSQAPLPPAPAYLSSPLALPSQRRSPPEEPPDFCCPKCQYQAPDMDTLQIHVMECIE
Sequence of UniProt P37353 (whole entry, looked up): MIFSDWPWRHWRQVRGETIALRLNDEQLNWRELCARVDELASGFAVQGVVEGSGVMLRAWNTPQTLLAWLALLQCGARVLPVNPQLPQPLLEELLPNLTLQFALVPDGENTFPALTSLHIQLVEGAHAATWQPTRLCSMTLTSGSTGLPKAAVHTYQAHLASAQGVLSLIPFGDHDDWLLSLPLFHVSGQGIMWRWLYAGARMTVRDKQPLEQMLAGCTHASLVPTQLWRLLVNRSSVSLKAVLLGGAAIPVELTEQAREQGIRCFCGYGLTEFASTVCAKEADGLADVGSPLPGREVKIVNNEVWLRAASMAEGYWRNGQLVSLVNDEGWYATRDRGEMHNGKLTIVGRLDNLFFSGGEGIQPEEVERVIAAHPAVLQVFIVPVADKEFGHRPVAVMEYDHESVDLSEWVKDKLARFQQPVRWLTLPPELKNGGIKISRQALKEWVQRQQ
Sequence of UniProt P21462 (whole entry, looked up): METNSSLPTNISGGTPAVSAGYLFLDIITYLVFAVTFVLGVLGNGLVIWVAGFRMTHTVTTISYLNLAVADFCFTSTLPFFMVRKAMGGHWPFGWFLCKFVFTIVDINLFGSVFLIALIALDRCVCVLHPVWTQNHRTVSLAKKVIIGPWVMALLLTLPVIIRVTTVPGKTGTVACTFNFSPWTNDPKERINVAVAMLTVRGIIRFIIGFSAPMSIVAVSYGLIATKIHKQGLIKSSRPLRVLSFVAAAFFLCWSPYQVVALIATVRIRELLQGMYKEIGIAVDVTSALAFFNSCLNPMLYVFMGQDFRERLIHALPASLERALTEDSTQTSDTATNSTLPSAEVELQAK
Sequence of UniProt P08246 (whole entry, looked up): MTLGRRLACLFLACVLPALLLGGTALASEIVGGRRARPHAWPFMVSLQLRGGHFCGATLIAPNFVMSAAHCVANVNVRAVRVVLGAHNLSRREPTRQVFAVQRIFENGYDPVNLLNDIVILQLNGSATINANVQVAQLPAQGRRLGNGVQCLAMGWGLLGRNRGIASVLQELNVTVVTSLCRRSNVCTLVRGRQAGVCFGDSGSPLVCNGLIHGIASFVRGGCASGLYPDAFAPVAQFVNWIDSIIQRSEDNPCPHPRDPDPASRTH
Sequence of UniProt P09769 (whole entry, looked up): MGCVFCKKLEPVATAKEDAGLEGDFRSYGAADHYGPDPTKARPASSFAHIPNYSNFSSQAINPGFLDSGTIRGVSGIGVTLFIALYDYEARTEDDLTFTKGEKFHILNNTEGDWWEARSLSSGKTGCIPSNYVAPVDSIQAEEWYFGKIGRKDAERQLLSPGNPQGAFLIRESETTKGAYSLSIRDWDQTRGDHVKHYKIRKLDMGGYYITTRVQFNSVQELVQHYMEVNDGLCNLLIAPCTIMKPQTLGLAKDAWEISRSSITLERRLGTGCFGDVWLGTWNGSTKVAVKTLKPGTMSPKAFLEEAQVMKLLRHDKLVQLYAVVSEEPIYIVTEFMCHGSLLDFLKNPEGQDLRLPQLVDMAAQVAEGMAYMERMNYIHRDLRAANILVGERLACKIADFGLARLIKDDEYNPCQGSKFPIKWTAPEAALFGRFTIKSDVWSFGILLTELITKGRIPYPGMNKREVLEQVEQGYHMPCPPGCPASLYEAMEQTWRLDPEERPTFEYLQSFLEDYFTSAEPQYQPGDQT
Sequence of UniProt P32248 (whole entry, looked up): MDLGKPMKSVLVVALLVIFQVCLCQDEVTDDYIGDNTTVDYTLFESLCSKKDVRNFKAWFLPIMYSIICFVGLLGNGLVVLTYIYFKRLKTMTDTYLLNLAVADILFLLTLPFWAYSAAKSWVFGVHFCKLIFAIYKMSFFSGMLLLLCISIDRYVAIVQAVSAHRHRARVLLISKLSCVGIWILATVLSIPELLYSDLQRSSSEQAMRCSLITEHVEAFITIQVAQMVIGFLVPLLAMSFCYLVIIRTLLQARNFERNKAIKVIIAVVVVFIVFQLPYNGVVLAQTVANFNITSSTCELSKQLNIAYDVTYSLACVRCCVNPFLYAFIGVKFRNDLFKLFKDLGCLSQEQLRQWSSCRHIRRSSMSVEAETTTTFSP

CC(/C=C/C(=O)NO)=C\[C@@H](C)C(=O)c1ccc(N(C)C)cc1 — IC50 (ACP1 (Homo sapiens, UniProt P24666); enzyme activity, inhibitor, fluorescence): > 100000 nM
COc1cccc(Cc2cc(CCC(=O)NC3=C(C)C4=C(C)c5c(C)cc(C)n5[B-](F)(F)[N+]4=C3C)nn(CC(=O)Nc3ccc(Br)cc3)c2=O)c1 — IC50 (FPR1 (Homo sapiens, UniProt P21462); calcium mobilisation, antagonist; HL-60 transfected): 1410 nM
Cc1ccc(O)c(C=NNC(=S)NCc2ccc(Cl)cc2)c1 — IC50 (AKR1B1 (Homo sapiens, UniProt P15121); enzyme activity, inhibitor, absorbance): > 100000 nM
Oc1c(C(Nc2nc3ccccc3s2)c2cccc(OCc3ccccc3)c2)ccc2cccnc12 (stereo not drawn) — IC50 (Genome polyprotein, protease (Dengue virus type 2, UniProt P14340); enzyme activity, inhibitor, fluorescence): 1290 nM
CC(=O)C1=C(C)NC(=O)NC1c1ccccc1 (stereo not drawn) — IC50 (AMY2 (Sus scrofa, UniProt P00690); enzyme activity, inhibitor): 99900 nM
COc1cc(O)cc2cc3c(c(O)c12)C(=O)CC(C)(O)O3 (stereo not drawn) — IC50 (Beta-secretase 1 (BACE1, Homo sapiens, UniProt P56817); enzyme activity, inhibitor, FRET): > 100000 nM
Nc1ncnc2c1ncn2C1OC(COc2cccc(CCC(=O)c3ccccc3C(=O)O)c2)C(O)C1O (stereo not drawn) — IC50 (2-succinylbenzoate--CoA ligase (menE, Escherichia coli, UniProt P37353); enzyme activity, inhibitor, MenB-MenE coupled): 8000 nM
CC(C)c1cc(CN(C)C(=O)c2cccc(-c3ccc(F)cc3)c2)no1 — IC50 (Acetyl-CoA synthetase (Cryptococcus neoformans, UniProt J9VFT1)): > 50000 nM
Nc1ccc(Oc2c(F)c(F)c(Oc3ccc(N)cc3)c(F)c2F)cc1 — IC50 (Estrogen receptor (ESR1, Homo sapiens, UniProt P03372); coactivator recruitment, antagonist): 810 nM
N#Cc1c(N2CCOCC2)nc(NCCCN2CCOCC2)c2c1CCN(Cc1ccccc1)C2 — IC50 (gyrB (Escherichia coli, UniProt P0AES6); enzyme activity, inhibitor): 28100 ± 700 nM
N=C(N)NCCC[C@@H]1NC(=O)[C@H](Cc2c[nH]c3ccccc23)NC(=O)[C@H](CCCNC(=N)N)NC(=O)[C@H](Cc2c[nH]c3ccccc23)NC(=O)[C@H](CCCNC(=N)N)NC(=O)[C@H](Cc2c[nH]c3ccccc23)NC(=O)[C@H](CCCNC(=N)N)NC(=O)[C@H](Cc2c[nH]c3ccccc23)NC(=O)[C@H](CCCNC(=N)N)NC(=O)[C@H](Cc2c[nH]c3ccccc23)NC(=O)[C@H](CCCNC(=N)N)NC(=O)[C@H](Cc2c[nH]c3ccccc23)NC(=O)[C@H](CCCNC(=N)N)NC(=O)[C@H](Cc2c[nH]c3ccccc23)NC(=O)[C@H](CCCNC(=N)N)NC(=O)[C@H](Cc2c[nH]c3ccccc23)NC1=O — IC50 (BRAF (Homo sapiens, UniProt P15056); enzyme activity, inhibitor): 680 nM
Nc1ncnc2[nH]c(/C=C/c3ccc(C(F)(F)F)cc3)nc12 — IC50 (ADORA2A (Homo sapiens, UniProt P29274); cAMP, ELISA): > 328000 nM
Cc1ccccc1OS(=O)(=O)C1CC2OC1C(c1ccc(O)cc1)=C2c1ccc(O)cc1 (racemic) — IC50 (ESR2 (Homo sapiens, UniProt Q92731); reporter gene, antagonist, luciferase): 357 nM
C#CCn1c(Oc2cccc(C3(C(F)(F)F)N=N3)c2)nc2c1c(=O)n(CCCO)c(=O)n2C — IC50 (TRPC1/TRPC5 (TRPC1/TRPC5, Homo sapiens, UniProt P48995+Q9UL62); calcium influx, inhibitor, Fura-2; HEK T-REx expressing TRPC1/TRPC5; with: englerin A 30 nM): 196 nM
COc1cc(O)ccc1CC[C@@H](c1ccc(O)cc1)c1cc2c(c(C)c1O)O[C@@H](c1ccc(O)cc1)CC2 — IC50 (ALOX5 (Homo sapiens, UniProt P09917); enzyme activity, inhibitor): 700 nM
Cc1cc(NC(=O)c2cccc(-n3cc(NC(=O)Nc4ccccc4)cn3)c2)ccn1 — IC50 (Mitogen-activated protein kinase 10, isoform alpha-1 (MAPK10, Homo sapiens, UniProt P53779, L144I); enzyme activity, inhibitor, HTRF; with: 1.25 µM ATP): 1300 ± 443 nM
CCNC(=O)[C@H]1O[C@@H](n2cnc3c(NCCCCCCCCCCCNS(=O)(=O)c4cccc5c(N(C)C)cccc45)ncnc32)[C@H](O)[C@@H]1O — IC50 (ADORA1; ligand displacement in cells, radioligand): 14800 nM
CC(=O)Nc1ccc(C(=O)Nc2cc(-c3cccs3)ccc2N)cc1 — IC50 (HDAC4 (Homo sapiens, UniProt P56524); deacetylase activity, inhibitor, recombinant enzyme): > 30000 nM
N#C/C(=C\c1cccc(-c2cccc3[nH]ncc23)c1)C(N)=O — IC50 (JAK1 (Homo sapiens, UniProt P23458); kinase activity, inhibitor; up to highest tested, with: ATP at Km): > 10000 nM
C#CC(=O)Nc1ccc2nc(NCCCCCN(C)C)nc(NCCCCCCN(C)C)c2c1 — IC50 (SETDB1 (Homo sapiens, UniProt Q15047); enzyme activity, inhibitor): 6770 nM
O=C(NO)C1=CCCC1 — IC50 (hdac10 (Danio rerio, UniProt F1QCV2)): 147 ± 15 nM
O=C(NC1CC=C(c2cc3c(Nc4cc5ncsc5cc4F)ncnc3s2)CC1)NC1CC1 (racemic) — IC50 (RIPK2; enzyme activity, inhibitor): 10 nM
CC[C@H](C)[C@@H]1NC(=O)[C@H](Cc2c[nH]c3ccccc23)NC(=O)CNC(=O)c2cc3cc(c2)C(=O)NC[C@@H](C(=O)NCCC(=O)NCCC(=O)N[C@@H](CCCCN)C(N)=O)NC(=O)[C@H](CCCNC(=N)N)NC(=O)[C@@H](CCCNC(=N)N)NC(=O)[C@H](CCCNC(=N)N)NC(=O)[C@H](Cc2ccc4ccccc4c2)NC(=O)[C@H](C)NC(=O)[C@H](CNC3=O)NC(=O)[C@H](C)NC(=O)[C@H](Cc2ccc(O)cc2)NC1=O — IC50 (NF-kappa-B essential modulator, with IKK-beta (IKBKG, Homo sapiens, UniProt Q9Y6K9); inhibitor, HTRF): 1900 ± 200 nM
CCNC(=O)[C@H]1O[C@@H](n2cnc3c(NCCCCCCCCNC(=O)CCCCCNC(=O)COc4ccc(/C=C/C5=[N+]6C(=Cc7ccc(-c8cccs8)n7[B-]6(F)F)C=C5)cc4)ncnc32)[C@H](O)[C@@H]1O — IC50 (ADORA1; ligand displacement in cells, radioligand): 912 nM
CNC(=O)C1CCN(c2cc(C)c(F)cc2NC(=O)c2ccc(-c3c(C)ccc4[nH]ncc34)c(C)c2)CC1 — IC50 (FGR (Homo sapiens, UniProt P09769); target engagement in cells, BRET): 4580 nM
O=c1c(-c2nc3ccccc3s2)cc2c(n1NS(=O)(=O)c1ccc(Cl)cc1)CCCCCC2 — IC50 (USP7 (Homo sapiens, UniProt Q93009); enzyme activity, inhibitor, fluorescence): 20700 nM
CC(C)CN(CC(=O)NCCCCCCNC(=O)c1ccc(-c2n[nH]c3ccccc23)cc1)C(=O)C(C)NC(=O)C1COc2ccccc2C1 (stereo not drawn) — IC50 (MAPK10; ligand displacement, FP): 1040 nM
CC1=CC(=O)CC(C)(C)C1C=CC(C)OC1OC(CO)C(O)C(O)C1O (stereo not drawn) — IC50 (PTPN1 (Homo sapiens, UniProt P18031); enzyme activity, inhibitor, absorbance): > 100000 nM
CC(C)C[C@H](NC(=O)[C@H](CC(N)=O)NC(=O)[C@H](CC(C)C)NC(=O)[C@@H](NC(=O)[C@@H](NC(=O)[C@@H]1CCCN1C(=O)[C@H](CCCNC(=N)N)NC(=O)[C@H](CCCCN)NC(=O)[C@@H]1CCCN1)[C@@H](C)O)[C@@H](C)O)C(=O)N[C@@H](Cc1ccccc1)C(=O)NCCCCCC(=O)N[C@@H](CCCNC(=N)N)C(=O)N[C@@H](CCCNC(=N)N)C(=O)N[C@@H](CCCNC(=N)N)C(=O)N[C@@H](CCC(N)=O)C(=O)N[C@@H](CCCNC(=N)N)C(=O)N[C@@H](CCCNC(=N)N)C(=O)N[C@@H](CCCCN)C(=O)N[C@@H](CCCCN)C(=O)N[C@@H](CCCNC(=N)N)C(=O)NCC(N)=O — IC50 (MAPK10; enzyme activity, inhibitor, radiometric; pH 7.5): 1200 nM
CCn1[c]([Au-][Cl])[n+](CC)c2ccc(C(=O)OC)cc21 — IC50 (trxB (Escherichia coli, UniProt P0A9P4); enzyme activity, inhibitor, absorbance; with preincubation): 267 nM
COc1ccc(Oc2ccccc2N(CCO)S(=O)(=O)c2ccc(N)cc2)cc1 — IC50 (ESRRA (Homo sapiens, UniProt P11474); transcriptional activity, inhibitor, mammalian two-hybrid reporter; HEK293T; 48 h, GAL4-LBD fusion): 1290 nM
N=C(N)NCCC[C@H](NC(=O)[C@H](CC(=O)O)NC(=O)[C@@H]1CSCCC(=O)NCC(=O)N[C@@H](Cc2c[nH]cn2)C(=O)N[C@H](Cc2ccccc2)C(=O)N[C@@H](CCCNC(=N)N)C(=O)N[C@@H](Cc2c[nH]c3ccccc23)C(=O)N1)C(=O)N[C@@H](Cc1ccccc1)C(=O)NCC(N)=O — IC50 (MC3R (Homo sapiens, UniProt P41968); ligand displacement, radioligand): 76 nM
Cc1[nH]c2ccccc2c1CCNC(=O)c1ccccc1F — IC50 (ACTR3/Actin-related protein 2 (Homo sapiens, UniProt P61158+P61160); actin polymerization, inhibitor, pyrenyl-actin polymerization): 4000 nM
CC1OC(Oc2c(-c3ccc(O)cc3)oc3cc(O)cc(O)c3c2=O)C(OC(=O)C=Cc2ccc(O)cc2)C(O)C1OC(=O)C=Cc1ccc(O)cc1 (stereo not drawn) — IC50 (CCR7 (Homo sapiens, UniProt P32248); calcium flux, antagonist; 293FT GCaMP6 transfected): > 1000 nM
COc1cc(-c2ccc(/N=N/c3ccc4c(S(=O)(=O)O)cc(S(=O)(=O)O)c(N)c4c3O)c(OC)c2)ccc1/N=N/c1ccc2c(S(=O)(=O)O)cc(S(=O)(=O)O)c(N)c2c1O — IC50 (Neutrophil elastase (ELANE, Homo sapiens, UniProt P08246); enzyme activity, inhibitor, absorbance; pH 7.4): 2100 nM
CNC(=O)c1ccccc1Oc1nc(Nc2cc(OC)c(OC)c(OC)c2)ncc1Br — IC50 (NUAK1 (Homo sapiens, UniProt O60285); enzyme activity, inhibitor): 87 nM
CCNS(=O)(=O)c1ccc(COc2ccc3nc4ccc(=O)cc-4oc3c2)cc1 — IC50 (DDR2 (Homo sapiens, UniProt Q16832); phosphorylation in cells, inhibitor, western blot): 286 nM
O=c1c2ccccc2[s+]([O-])n1-c1ccccc1 (stereo not drawn) — IC50 (HDAC7 (Homo sapiens, UniProt Q8WUI4); enzyme activity, inhibitor): > 10000 nM
C[C@@]12CC[C@@H]3c4ccc(O)c(Br)c4CC[C@H]3[C@@H]1CCC2=O — IC50 (AKR1C2 (Homo sapiens, UniProt P52895); enzyme activity, inhibitor, absorbance; pH 9): 2200 nM
COC(=O)C1C(C=NNCC(F)(F)F)=Cc2cc3c(cc2C1c1cc(OC)c(OC)c(OC)c1)OCO3 (stereo not drawn) — IC50 (tubulin alpha/beta (Leishmania infantum, UniProt A0A381MCS3+A4HTR0); tubulin polymerization, inhibitor; 37 °C): 2900 ± 300 nM
O=C(CS(=O)(=O)Cc1ccco1)C12CC3CC(CC(C3)C1)C2 — IC50 (Hsd11b1 (Mus musculus, UniProt P50172); enzyme activity in cells, inhibitor): 176 nM
COc1cc(CCC(O)CC(O)CCc2ccc(O)cc2)ccc1O (stereo not drawn) — IC50 (PNLIP (Sus scrofa, UniProt P00591); enzyme activity, inhibitor, absorbance): 175000 nM
CC1(C)C2CC3C(c4ccccc4)c4c(O)c(C=O)c(O)c(C=O)c4OC3(C)C1C2 (single isomer, unassigned; (+)) — IC50 (PFKP (Homo sapiens, UniProt Q01813); probe labelling, inhibitor, gel-based ABPP; HEK293T cell lysate; apparent): 1500 nM
O=C(/C=C(\O)C(F)(F)C(F)(F)F)c1cccnc1 — IC50 (Formate-nitrite transporter (Plasmodium knowlesi, UniProt A0A679KXN5); L-lactate transport, inhibitor; yeast; pH 6.8, with: 14C-L-lactate 1 mM): 870 ± 60 nM
NC1CC=C(c2cc3c(Nc4cc5ncsc5cc4F)ncnc3s2)CC1 (stereo not drawn) — IC50 (RIPK2; enzyme activity, inhibitor): 8 nM

Some of these lines once more:
O=C(CS(=O)(=O)Cc1ccco1)C12CC3CC(CC(C3)C1)C2 — IC50 (Hsd11b1 (Mus musculus, UniProt P50172); enzyme activity in cells, inhibitor): 176 nM
COc1ccc(Oc2ccccc2N(CCO)S(=O)(=O)c2ccc(N)cc2)cc1 — IC50 (ESRRA (Homo sapiens, UniProt P11474); transcriptional activity, inhibitor, mammalian two-hybrid reporter; HEK293T; 48 h, GAL4-LBD fusion): 1290 nM
